Measured values collected from several papers.
Protocols differ between the studies behind these lines. Numbers after ± are the reported error.
BCL2L1: Bcl-2-like protein 1 (BCL2L1, Homo sapiens, UniProt Q07817)
UniProt Q07817, sequence (whole entry, looked up): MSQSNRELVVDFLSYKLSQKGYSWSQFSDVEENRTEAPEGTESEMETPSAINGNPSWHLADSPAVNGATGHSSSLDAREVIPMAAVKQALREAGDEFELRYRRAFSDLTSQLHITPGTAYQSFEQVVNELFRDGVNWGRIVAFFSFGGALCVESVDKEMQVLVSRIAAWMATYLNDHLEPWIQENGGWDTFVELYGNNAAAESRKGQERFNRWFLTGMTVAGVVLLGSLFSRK
LGALS3: Galectin-3 (LGALS3, Homo sapiens, UniProt P17931)
UniProt P17931, sequence (whole entry, unmodified, looked up): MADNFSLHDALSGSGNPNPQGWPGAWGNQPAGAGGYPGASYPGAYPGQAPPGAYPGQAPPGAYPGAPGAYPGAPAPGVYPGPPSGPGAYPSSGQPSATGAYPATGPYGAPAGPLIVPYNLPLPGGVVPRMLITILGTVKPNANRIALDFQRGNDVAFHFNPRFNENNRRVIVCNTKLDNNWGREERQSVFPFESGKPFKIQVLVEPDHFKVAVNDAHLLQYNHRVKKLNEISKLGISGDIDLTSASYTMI
SOST: Sclerostin (SOST, Homo sapiens, UniProt Q9BQB4)
UniProt Q9BQB4, sequence (whole entry, looked up): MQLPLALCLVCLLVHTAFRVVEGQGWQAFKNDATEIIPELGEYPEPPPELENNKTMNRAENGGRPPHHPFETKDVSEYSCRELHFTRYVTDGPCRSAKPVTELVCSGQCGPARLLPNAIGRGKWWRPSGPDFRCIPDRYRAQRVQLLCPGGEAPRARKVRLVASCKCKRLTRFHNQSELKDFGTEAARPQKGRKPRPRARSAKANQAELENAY
UniProt Q9LFP6, sequence (whole entry, looked up): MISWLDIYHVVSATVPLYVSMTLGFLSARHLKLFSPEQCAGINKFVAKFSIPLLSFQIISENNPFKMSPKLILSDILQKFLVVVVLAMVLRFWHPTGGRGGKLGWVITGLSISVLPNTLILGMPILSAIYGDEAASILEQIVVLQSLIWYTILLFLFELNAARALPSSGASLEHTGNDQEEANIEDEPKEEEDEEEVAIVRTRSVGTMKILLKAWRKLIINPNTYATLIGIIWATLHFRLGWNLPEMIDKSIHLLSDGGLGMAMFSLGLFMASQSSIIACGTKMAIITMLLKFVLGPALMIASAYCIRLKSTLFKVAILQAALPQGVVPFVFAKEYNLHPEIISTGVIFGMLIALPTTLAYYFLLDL
UniProt P56470, sequence (whole entry, looked up): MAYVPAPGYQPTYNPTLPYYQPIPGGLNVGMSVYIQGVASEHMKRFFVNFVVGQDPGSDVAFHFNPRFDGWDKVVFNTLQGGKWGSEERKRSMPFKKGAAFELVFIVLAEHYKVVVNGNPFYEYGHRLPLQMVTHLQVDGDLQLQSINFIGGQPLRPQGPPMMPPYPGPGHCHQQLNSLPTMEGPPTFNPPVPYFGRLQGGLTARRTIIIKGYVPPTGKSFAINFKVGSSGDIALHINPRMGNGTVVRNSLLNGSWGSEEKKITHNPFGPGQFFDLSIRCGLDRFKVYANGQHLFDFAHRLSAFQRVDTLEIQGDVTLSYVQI
UniProt O49686, sequence (whole entry, looked up): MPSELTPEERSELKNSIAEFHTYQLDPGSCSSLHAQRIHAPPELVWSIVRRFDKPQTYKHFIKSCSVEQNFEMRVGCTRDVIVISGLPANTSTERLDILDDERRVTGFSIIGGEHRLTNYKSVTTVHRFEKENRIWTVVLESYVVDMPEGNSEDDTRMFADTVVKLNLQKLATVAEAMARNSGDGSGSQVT
UniProt P08238, sequence (whole entry, looked up): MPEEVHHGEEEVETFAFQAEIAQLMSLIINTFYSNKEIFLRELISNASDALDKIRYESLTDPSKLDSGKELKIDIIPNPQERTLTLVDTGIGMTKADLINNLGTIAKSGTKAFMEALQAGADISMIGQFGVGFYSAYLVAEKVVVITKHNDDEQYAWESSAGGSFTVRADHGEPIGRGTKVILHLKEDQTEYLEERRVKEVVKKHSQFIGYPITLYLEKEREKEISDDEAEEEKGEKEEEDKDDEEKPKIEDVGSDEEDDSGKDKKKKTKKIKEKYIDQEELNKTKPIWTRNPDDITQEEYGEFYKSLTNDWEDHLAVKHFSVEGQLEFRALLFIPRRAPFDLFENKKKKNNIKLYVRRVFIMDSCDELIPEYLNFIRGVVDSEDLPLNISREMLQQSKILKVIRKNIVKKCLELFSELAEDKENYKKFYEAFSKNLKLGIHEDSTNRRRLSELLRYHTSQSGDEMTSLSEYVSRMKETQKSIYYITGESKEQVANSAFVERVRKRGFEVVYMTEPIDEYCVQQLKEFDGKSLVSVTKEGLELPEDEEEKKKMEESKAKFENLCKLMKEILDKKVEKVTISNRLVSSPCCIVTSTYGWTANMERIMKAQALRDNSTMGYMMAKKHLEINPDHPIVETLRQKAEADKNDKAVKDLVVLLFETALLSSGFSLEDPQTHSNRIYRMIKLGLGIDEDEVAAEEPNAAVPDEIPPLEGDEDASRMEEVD
UniProt Q13976, sequence (whole entry, looked up): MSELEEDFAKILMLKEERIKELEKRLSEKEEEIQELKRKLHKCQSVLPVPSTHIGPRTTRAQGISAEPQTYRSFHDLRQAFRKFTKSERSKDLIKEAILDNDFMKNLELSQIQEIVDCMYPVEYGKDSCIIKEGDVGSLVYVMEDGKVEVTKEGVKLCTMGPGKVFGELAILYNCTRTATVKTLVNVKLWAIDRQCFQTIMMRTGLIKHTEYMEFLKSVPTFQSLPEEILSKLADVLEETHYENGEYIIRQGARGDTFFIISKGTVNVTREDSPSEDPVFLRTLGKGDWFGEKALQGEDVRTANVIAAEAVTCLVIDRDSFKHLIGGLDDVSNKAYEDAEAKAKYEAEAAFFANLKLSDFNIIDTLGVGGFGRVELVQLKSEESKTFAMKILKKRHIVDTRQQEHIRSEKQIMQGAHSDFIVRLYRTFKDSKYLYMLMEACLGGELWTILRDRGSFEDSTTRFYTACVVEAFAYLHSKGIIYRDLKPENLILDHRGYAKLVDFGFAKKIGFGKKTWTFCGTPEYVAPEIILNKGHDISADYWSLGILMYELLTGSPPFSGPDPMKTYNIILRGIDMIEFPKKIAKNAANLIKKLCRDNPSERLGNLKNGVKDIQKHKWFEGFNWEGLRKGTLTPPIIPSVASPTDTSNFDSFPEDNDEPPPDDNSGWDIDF
UniProt P98170, sequence (whole entry, unmodified, looked up): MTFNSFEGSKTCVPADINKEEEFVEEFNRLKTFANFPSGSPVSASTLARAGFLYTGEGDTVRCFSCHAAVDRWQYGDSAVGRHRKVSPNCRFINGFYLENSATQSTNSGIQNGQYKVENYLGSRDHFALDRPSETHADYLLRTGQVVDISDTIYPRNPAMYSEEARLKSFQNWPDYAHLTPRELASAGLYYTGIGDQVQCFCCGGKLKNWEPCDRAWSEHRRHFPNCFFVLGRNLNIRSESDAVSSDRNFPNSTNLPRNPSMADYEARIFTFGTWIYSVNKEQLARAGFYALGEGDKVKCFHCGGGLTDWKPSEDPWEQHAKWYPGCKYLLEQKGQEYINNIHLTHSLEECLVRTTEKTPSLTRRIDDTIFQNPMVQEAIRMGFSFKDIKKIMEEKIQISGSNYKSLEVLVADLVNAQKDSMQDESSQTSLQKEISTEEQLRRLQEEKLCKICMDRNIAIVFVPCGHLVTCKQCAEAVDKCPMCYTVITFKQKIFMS
UniProt P27694, sequence (whole entry, looked up): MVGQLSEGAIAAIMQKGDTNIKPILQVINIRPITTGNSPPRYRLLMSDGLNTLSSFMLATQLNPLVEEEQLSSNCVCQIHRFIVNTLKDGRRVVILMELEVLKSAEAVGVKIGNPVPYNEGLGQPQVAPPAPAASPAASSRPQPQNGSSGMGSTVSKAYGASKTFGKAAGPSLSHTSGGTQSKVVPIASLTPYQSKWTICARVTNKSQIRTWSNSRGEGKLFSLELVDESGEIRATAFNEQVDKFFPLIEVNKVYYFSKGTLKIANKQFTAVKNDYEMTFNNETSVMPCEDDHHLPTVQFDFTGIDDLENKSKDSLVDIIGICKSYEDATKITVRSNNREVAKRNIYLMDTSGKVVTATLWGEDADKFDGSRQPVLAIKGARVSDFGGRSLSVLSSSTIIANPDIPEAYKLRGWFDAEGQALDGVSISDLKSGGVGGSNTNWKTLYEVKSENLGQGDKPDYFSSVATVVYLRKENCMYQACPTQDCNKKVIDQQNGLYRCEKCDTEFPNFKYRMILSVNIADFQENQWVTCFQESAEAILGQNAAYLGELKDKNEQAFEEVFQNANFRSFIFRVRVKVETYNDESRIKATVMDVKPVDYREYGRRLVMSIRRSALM
UniProt Q9SQR3, sequence (whole entry, looked up): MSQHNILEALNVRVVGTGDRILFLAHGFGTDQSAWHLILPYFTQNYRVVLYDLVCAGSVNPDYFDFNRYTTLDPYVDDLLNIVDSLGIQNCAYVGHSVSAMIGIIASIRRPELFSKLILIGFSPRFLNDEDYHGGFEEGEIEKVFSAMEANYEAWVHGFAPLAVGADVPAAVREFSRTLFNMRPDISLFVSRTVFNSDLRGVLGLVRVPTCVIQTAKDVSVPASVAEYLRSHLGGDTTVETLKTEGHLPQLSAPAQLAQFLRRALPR
UniProt Q03405, sequence (whole entry, looked up): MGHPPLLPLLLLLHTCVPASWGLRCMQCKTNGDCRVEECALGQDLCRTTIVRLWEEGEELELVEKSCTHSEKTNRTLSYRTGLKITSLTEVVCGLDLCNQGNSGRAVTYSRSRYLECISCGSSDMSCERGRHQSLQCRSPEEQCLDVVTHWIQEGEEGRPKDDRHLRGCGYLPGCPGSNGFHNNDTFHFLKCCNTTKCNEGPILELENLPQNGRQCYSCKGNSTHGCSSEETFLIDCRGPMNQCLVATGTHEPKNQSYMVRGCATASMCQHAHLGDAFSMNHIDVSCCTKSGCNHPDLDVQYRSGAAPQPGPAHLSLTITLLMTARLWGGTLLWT
UniProt Q92843, sequence (whole entry, looked up): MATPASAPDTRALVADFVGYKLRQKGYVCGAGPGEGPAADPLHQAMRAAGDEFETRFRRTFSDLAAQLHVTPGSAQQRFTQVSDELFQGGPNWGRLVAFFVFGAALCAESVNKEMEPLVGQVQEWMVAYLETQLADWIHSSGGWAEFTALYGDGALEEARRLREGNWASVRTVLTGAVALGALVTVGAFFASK

Compound	target	test	test system	setting	Kd
COc1ccc(/C=C/c2ccc(-c3ccc(C)cn3)nc2)cc1	zinc(II)	binding, fluorescence titration	aqueous HEPES buffer	pH 7.4, metal-buffered solution	0.04 to 2 µM
COc1c(F)c(F)c(C(=O)N[C@H]2[C@@H](O)[C@@H](CO)O[C@@H](S[C@@H]3O[C@H](CO)[C@H](O)[C@H](NC(=O)c4c(F)c(F)c(OC)c(F)c4F)[C@H]3OS(=O)(=O)O)[C@@H]2O)c(F)c1F	Galectin-3 (LGALS3, Homo sapiens, UniProt P17931, R144K)	cell-free assay, FP	–	–	0.49 µM
O=C(Nc1ccc(S(=O)(=O)Nc2cnc3ccccc3n2)cc1)c1ccc(Cl)cc1Cl	Peptidyl-prolyl cis-trans isomerase A (PPIA, Homo sapiens, UniProt P62937)	binding, SPR	–	pH 7.4	8.99 µM
CC[C@H](C)[C@H](NC(=O)[C@H](CCCNC(=N)N)NC(=O)[C@H](CCCCN)NC(=O)[C@H](CC(C)C)NC(=O)[C@H](CCC(=O)O)NC(=O)[C@H](CCC(N)=O)NC(=O)[C@H](C)NC(=O)[C@@H](NC(=O)[C@H](Cc1c[nH]c2ccccc12)NC(=O)[C@@H](NC(=O)[C@H](CCC(=O)O)NC(=O)[C@@H]1CCCN1C(=O)[C@H](CCCNC(=N)N)NC(C)=O)[C@@H](C)CC)C(C)C)C(=O)NCC(=O)N[C@@H](CC(=O)O)C(=O)N[C@@H](CCC(=O)O)C(=O)N[C@@H](Cc1ccccc1)C(=O)N[C@@H](CC(N)=O)C(=O)N[C@@H](C)C(=O)N[C@@H](Cc1ccc(O)cc1)C(=O)N[C@@H](Cc1ccc(O)cc1)C(=O)N[C@@H](C)C(=O)N[C@@H](CCCNC(=N)N)C(=O)N[C@@H](CCCNC(=N)N)C(=O)N[C@H](C(=O)N[C@@H](Cc1ccccc1)C(=O)N[C@@H](CC(C)C)C(=O)N[C@@H](CC(N)=O)C(N)=O)C(C)C	BCL2L1	binding, flow cytometry	–	pH 8	0.00018 µM
COc1c(F)c(F)c(C(=O)N[C@H]2[C@@H](O)[C@@H](CO)O[C@@H](OC)[C@@H]2OS(=O)(=O)O)c(F)c1F	LGALS3	cell-free assay, FP	–	–	65 µM
CN(C)c1ccc2c(-c3ccc(C(=O)NCCCC[C@@H](NC(=O)[C@@H](CCCNC(=N)N)NC(=O)[C@@H](CCCNC(=N)N)NC(=O)[C@@H](CCCNC(=N)N)NC(=O)[C@@H](CCCNC(=N)N)NC(=O)[C@@H](CCCNC(=N)N)NC(=O)[C@@H](CCCNC(=N)N)NC(=O)CCCCCNC(=O)[C@@H](CCCNC(=N)N)NC(=O)CCCCCNC(=O)c4ccc(-c5ccnc(N)n5)s4)C(N)=O)cc3C(=O)[O-])c3ccc(=[N+](C)C)cc-3oc2c1	cGMP-dependent protein kinase 1, isoform alpha (PRKG1, Homo sapiens, UniProt Q13976)	binding, fluorescence anisotropy	–	no cGMP, together with: 10 mM magnesium acetate	0.00773 µM
CC(C)C[C@H](NC(=O)[C@H](Cc1ccc(O)cc1)NC(=O)[C@@H](CCCNC(=N)N)NC(=O)[C@@H](CO)NC(=O)[C@H](Cc1ccccc1)NC(=O)[C@H](CC1CCCCC1)NC(=O)[C@H](CC(=O)O)NC(=O)CN1CCCN2CCN(CCCN(CC(=O)O)CC2)CC1)C(=O)N[C@@H](Cc1c[nH]c2ccccc12)C(=O)N[C@@H](CO)C(=O)O (single isomer, unassigned)	Urokinase plasminogen activator surface receptor (Homo sapiens, UniProt Q03405)	binding, surface plasmon resonance	–	–	0.0077 µM
CC(=O)N[C@@H]1[C@@H](O[C@@H]2O[C@H](C(=O)O)[C@@H](O[C@@H]3O[C@H](CO)[C@@H](O)[C@H](O[C@@H]4O[C@H](C(=O)O)[C@@H](O)[C@H](O)[C@H]4O)[C@H]3NC(C)=O)[C@H](O)[C@H]2O)[C@H](O)[C@@H](CO)O[C@H]1N=[N+]=[N-]	SOST	fluorescence polarization competition	–	–	no binding
Cc1ccc(Oc2nc3cc(-c4ccc5c(ccn5C)c4)c(Cl)cc3[nH]2)cc1C(=O)O	PRKAB2/PRKAA1, gamma1; phosphorylated (Homo sapiens, UniProt O43741+Q13131)	binding, circular dichroism titration	–	α1β2γ1 complex	1.18 µM
O=C(Nc1cccc(C(=O)Nc2ccc(S(=O)(=O)O)c3cc(S(=O)(=O)O)cc(S(=O)(=O)O)c23)c1)Nc1cccc(C(=O)Nc2ccc(S(=O)(=O)O)c3cc(S(=O)(=O)O)cc(S(=O)(=O)O)c23)c1	E3 ubiquitin-protein ligase XIAP, BIR1 domain (XIAP, Homo sapiens, UniProt P98170, D71A)	microscale thermophoresis	–	–	> 10000 µM
Cc1ccccc1OCC(=O)O	PIN8 (Arabidopsis thaliana, UniProt Q9LFP6)	cell-free assay	–	–	250 µM
O=[N+]([O-])c1cc(Br)cc([N+](=O)[O-])c1NS(=O)(=O)c1ccc(Br)cc1	Abscisic acid receptor PYR1 (PYR1, Arabidopsis thaliana, UniProt O49686)	binding, ITC	–	–	2.34 µM
COc1ccc(C(=O)N[C@H]2[C@@H](O)[C@@H](CO)O[C@@H](OC)[C@@H]2O)cc1	LGALS3	cell-free assay, FP	–	–	620 µM
Cc1ncsc1-c1ccc(C2(NC(=O)C3CC(O)CN3C(=O)C(NC(=O)c3ccc(COc4c(-c5c(C)c(F)cc6[nH]ncc56)c(C5CC5)cc5c(N6CC7CC6CN7)nc(OC6CCOCC6)nc45)cc3)C(C)C)CC2)cc1 (stereo not drawn)	von Hippel-Lindau disease tumor suppressor, with Elongin B/C (VHL, Homo sapiens, UniProt P40337)	SPR	–	binary	0.714 µM
NCCCCCO[C@H]1O[C@H](CO[C@H]2O[C@H](CO[C@H]3O[C@H](CO)[C@@H](O)[C@H](O)[C@@H]3O[C@H]3O[C@H](CO)[C@@H](O)[C@H](O)[C@@H]3O)[C@@H](O)[C@H](O[C@H]3O[C@H](CO)[C@@H](O)[C@H](O)[C@@H]3O[C@H]3O[C@H](CO)[C@@H](O)[C@H](O)[C@@H]3O)[C@@H]2O)[C@@H](O)[C@H](O[C@H]2O[C@H](CO)[C@@H](O)[C@H](O)[C@@H]2O[C@H]2O[C@H](CO)[C@@H](O)[C@H](O)[C@@H]2O[C@H]2O[C@H](CO)[C@@H](O)[C@H](O)[C@@H]2O)[C@@H]1O	Griffithsin (Griffithsia sp., UniProt P84801)	binding, isothermal titration calorimetry	–	–	0.58 ± 0.02 µM
CC(=O)N[C@@H]1[C@@H](O[C@@H]2O[C@H](C(=O)O)[C@@H](O[C@@H]3O[C@H](COS(=O)(=O)O)[C@@H](OS(=O)(=O)O)[C@H](O[C@@H]4O[C@H](C(=O)O)[C@@H](O[C@@H]5O[C@H](COS(=O)(=O)O)[C@@H](OS(=O)(=O)O)[C@H](O[C@@H]6O[C@H](C(=O)O)[C@@H](OS(=O)(=O)O)[C@H](OS(=O)(=O)O)[C@H]6OS(=O)(=O)O)[C@H]5NC(C)=O)[C@H](OS(=O)(=O)O)[C@H]4OS(=O)(=O)O)[C@H]3NC(C)=O)[C@H](OS(=O)(=O)O)[C@H]2OS(=O)(=O)O)[C@H](OS(=O)(=O)O)[C@@H](COS(=O)(=O)O)O[C@H]1N=[N+]=[N-]	SOST	ligand displacement, FP	–	–	0.23 µM
CC(C)C1=CC23CCC4C(C)(C(=O)O)CCCC4(C)C2CC1C(C(=O)O)C3C(=O)O (stereo not drawn)	Replication protein A 70 kDa DNA-binding subunit (RPA1, Homo sapiens, UniProt P27694)	binding, fluorescence	–	–	29 µM
O=S(=O)(O)C[C@H]1CNC[C@@H](O)[C@@H]1O	Sulfoquinovosidase (smoI, Agrobacterium fabrum, UniProt A9CEZ0)	–	–	–	6.8 ± 0.2 µM
C=CCNC1=C2C[C@@H](C)C[C@H](OC)[C@H](O)[C@@H](C)[C@@H]3O[C@@]3(C)[C@H](OC(N)=O)[C@@H](OC)/C=C\C=C(/C)C(=O)NC(=CC1=O)C2=O	Heat shock protein HSP 90-beta (HSP90AB1, Homo sapiens, UniProt P08238)	ligand displacement, FP	–	–	> 10 µM
C[n+]1cc2cc3cc(ccc31)NC(=O)CCCCC(=O)Nc1ccc3c(c1)cc(c[n+]3C)C(=O)NCc1cccc(c1)CNC2=O	c-KIT cKIT2 G-quadruplex DNA	thiazole orange displacement	–	together with: 0.50 µM thiazole orange	0.57 ± 0.01 µM
O=P(O)(O)O[C@@H]1[C@@H](O)[C@H](O)[C@H](O)[C@H](O)[C@H]1OP(=O)(O)O	Inositol 1,4,5-trisphosphate-gated calcium channel ITPR1, N-terminal region (Itpr1, Rattus norvegicus, UniProt P29994, del318-332/R504Q)	[3H]IP3 competition binding	–	N-terminal fragment R504Q	1.25 µM
CC#Cc1cc2c3c(c1C#CC)O[C@H](CO)[C@H](O)[C@@H]3OC2	Galectin-4, C-terminal domain (LGALS4, Homo sapiens, UniProt P56470)	binding, competitive fluorescence polarization	–	20 °C	~3000 µM
O=C(N[C@@H](Cn1ccnc1)c1ccc(F)cc1F)c1ccc(-c2nnc(-c3ccccc3)o2)cc1	Sterol 14-alpha demethylase (CYP51, Trypanosoma cruzi, UniProt Q7Z1V1)	binding, absorbance	–	–	0.02 µM
CCc1nc2cc3ccccc3cc2cc1C(=O)N1CCC[C@H]1C(=O)N[C@@H](CCC/C=C/CCC[C@H](NC(=O)[C@@H]1CCCN1C(=O)c1cc2cc3ccccc3cc2nc1CC)C(=O)N[C@@H](CCCCN)C(=O)NCCCN)C(=O)N[C@@H](CCCCN)C(=O)NCCCN	(CUG)10 RNA	SPR	–	pH 7.4	0.0225 µM
CC[C@H](C)[C@H](NC(=O)[C@H](Cc1c[nH]c2ccccc12)NC(=O)[C@@H](NC(=O)[C@H](CCC(=O)O)NC(=O)[C@@H]1CCCN1C(=O)[C@H](CCCNC(=N)N)NC(C)=O)[C@@H](C)CC)C(=O)N[C@@H](C)C(=O)N[C@@H](CCC(N)=O)C(=O)N[C@@H](CCC(=O)O)C(=O)N[C@@H](CC(C)C)C(=O)N[C@@H](CCCNC(=N)N)C(=O)N[C@@H](CCCNC(=N)N)C(=O)N[C@@H](C)C(=O)NCC(=O)N[C@@H](CCCCN)C(=O)N[C@H](C(=O)N[C@@H](CC(C)C)C(=O)N[C@@H](CC(N)=O)C(=O)N[C@@H](C)C(=O)N[C@@H](Cc1ccc(O)cc1)C(=O)N[C@@H](Cc1ccc(O)cc1)C(=O)N[C@@H](C)C(=O)N[C@@H](CCCNC(=N)N)C(N)=O)C(C)C	Bcl-2-like protein 2 (BCL2L2, Homo sapiens, UniProt Q92843)	binding, fluorescence polarization	–	pH 7.8, 37 °C	> 1 µM
CC[C@H](C)[C@H](NC(=O)[C@H](CCCNC(=N)N)NC(=O)[C@H](CCCCN)NC(=O)[C@H](CC(C)C)NC(=O)[C@H](CCC(N)=O)NC(=O)[C@H](C)NC(=O)CNC(=O)[C@H](CC(N)=O)NC(=O)[C@H](CCC(=O)O)NC(=O)[C@H](CCCNC(=N)N)NC(=O)[C@H](C)NC(=O)[C@H](Cc1c[nH]c2ccccc12)NC(=O)[C@H](CCC(N)=O)NC(=O)[C@H](CCC(=O)O)NC(=O)[C@H](CCC(=O)O)NC(C)=O)C(=O)N[C@@H](C)C(=O)N[C@@H](CC(=O)O)C(=O)N[C@@H](CC(=O)O)C(=O)N[C@@H](Cc1ccc(O)cc1)C(=O)N[C@@H](CC(N)=O)C(=O)N[C@@H](C)C(=O)N[C@@H](CCC(N)=O)C(=O)N[C@@H](Cc1ccc(O)cc1)C(=O)N[C@@H](CCC(=O)O)C(=O)N[C@@H](CCCNC(=N)N)C(=O)N[C@@H](CCCNC(=N)N)C(=O)N[C@@H](CCCNC(=N)N)C(=O)N[C@@H](CCC(N)=O)C(N)=O	BCL2L1	binding, flow cytometry	–	pH 8	0.005 µM
CCc1cccc2c(C(=O)COC(=O)C34CC5CC(CC(Br)(C5)C3)C4)c[nH]c12	D14 (Arabidopsis thaliana, UniProt Q9SQR3)	binding, fluorescence	–	–	3.4 µM

A few entries again:
Compound	target	test	test system	setting	Kd
O=P(O)(O)O[C@@H]1[C@@H](O)[C@H](O)[C@H](O)[C@H](O)[C@H]1OP(=O)(O)O	Inositol 1,4,5-trisphosphate-gated calcium channel ITPR1, N-terminal region (Itpr1, Rattus norvegicus, UniProt P29994, del318-332/R504Q)	[3H]IP3 competition binding	–	N-terminal fragment R504Q	1.25 µM
CC#Cc1cc2c3c(c1C#CC)O[C@H](CO)[C@H](O)[C@@H]3OC2	Galectin-4, C-terminal domain (LGALS4, Homo sapiens, UniProt P56470)	binding, competitive fluorescence polarization	–	20 °C	~3000 µM
O=C(N[C@@H](Cn1ccnc1)c1ccc(F)cc1F)c1ccc(-c2nnc(-c3ccccc3)o2)cc1	Sterol 14-alpha demethylase (CYP51, Trypanosoma cruzi, UniProt Q7Z1V1)	binding, absorbance	–	–	0.02 µM
CCc1nc2cc3ccccc3cc2cc1C(=O)N1CCC[C@H]1C(=O)N[C@@H](CCC/C=C/CCC[C@H](NC(=O)[C@@H]1CCCN1C(=O)c1cc2cc3ccccc3cc2nc1CC)C(=O)N[C@@H](CCCCN)C(=O)NCCCN)C(=O)N[C@@H](CCCCN)C(=O)NCCCN	(CUG)10 RNA	SPR	–	pH 7.4	0.0225 µM
